# Published values pooled from the literature.
# Parts stem from different laboratories: compare values within a part only. Positions count from the first letter of the parent shown.

# Sample 1
# Target: HLF, bZIP domain (human)
# Method: DHFR protein complementation
# Matrix: yeast
# Setting: single substitutions, most at no-binding floor
# Reference: wild-type JUN-FOS pair
# Reading: higher = stronger binding
# Parent: JUN, bZIP domain (human); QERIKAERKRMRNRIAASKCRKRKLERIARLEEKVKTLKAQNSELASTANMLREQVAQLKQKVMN; partner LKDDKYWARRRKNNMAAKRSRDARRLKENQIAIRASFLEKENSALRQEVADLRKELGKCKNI
Variant,binding fitness [natural log]
L31G,-1.51
L45S,-1.55
L38A,-1.45
T37H,-1.48
Q41F,-1.43
S47A,-1.25
L59W,-1.32
T37D,-1.47
I28K,-1.37
E54T,-1.49
R30L,-1.44
A29S,-1.47
E44A,-1.42
L45D,-1.5
S47T,-1.36
V56L,-1.44
N42E,-1.51
A40F,-1.43
A49F,-1.34
V35E,-1.4
M51R,-1.34
L45H,-1.5
E44F,-1.42
V35Y,-1.17
A46G,-1.47

# Sample 2
# Target: RING finger protein unkempt homolog, zinc fingers 1-6, GST-SBP tag (UNK, Homo sapiens, UniProt Q9C0B0, residues 30-357)
# Method: RNA Bind-n-Seq
# Form: RNA
# Matrix: in vitro
# Concentration: not given
# Setting: RNA with constant flanks, human and mouse sites, ends assumed
# Reference: input RNA pool
# Reading: higher = stronger binding
# Constant ends, left off below: GGGAGUUCUACAGUCCGACGAUC … CAACAGAGGAUUGAGCAUCA
# Construct (chain): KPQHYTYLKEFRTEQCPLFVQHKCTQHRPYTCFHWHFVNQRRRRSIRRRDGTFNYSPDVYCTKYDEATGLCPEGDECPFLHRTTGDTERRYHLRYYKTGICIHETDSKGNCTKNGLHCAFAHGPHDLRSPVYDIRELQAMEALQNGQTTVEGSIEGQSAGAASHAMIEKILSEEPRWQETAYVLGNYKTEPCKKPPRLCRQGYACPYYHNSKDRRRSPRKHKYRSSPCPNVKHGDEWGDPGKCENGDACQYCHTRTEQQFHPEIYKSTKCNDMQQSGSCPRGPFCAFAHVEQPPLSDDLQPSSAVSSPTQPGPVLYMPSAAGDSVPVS
Oligonucleotide,bound/input enrichment [ratio]
AAGCUGUAGGCUUUCUUCAGCCUUGCUCUUCCCAGCUCUGGAGAGUCCCUCCCUGACCUGGUGGUUAUAAUACAGCAGGCGGCCUUGGUUAAUGUUUACCUUUUCAUUGUGUUUUUGAAA,0.0841
UGUGGAAUCAAGCACCUUCAUUCUGCUGGAAUUAUUCAUCGGGACUUAAAGCCCAGUAAUAUAGUAGUAAAAUCUGAUUGCACUUUGAAGAUUCUUGACUUCGGUCUGGCCAGGACUGCA,0.205
UAGUUGCGCUGUUUGGAACAAACAUGGAUAUUGUUGAGCCCACUGCAUGAAGCAAAAGUAUGGGGAAGAAGACCAUUAGUGAAACAGUUCCGUAGUAGUGGUUAGUCCACUGAGAAUGUG,1.25
UUUGACAAGGAUGGCAAUGGUUAUAUCAGUGCAGCAGAACUACGUCACGUCAUGACAAACUUAGGAGAAAAACUAACAGAUGAAGAAGUAGAUGAAAUGAUCAGAGAAGCAGAUAUUGAU,2.42
UAUGCUUACCUUCUAAACGAUCAUGGCUAUUUGAUAUCUAAAUAUUUAAAACUUAACCAUGUCGUCACUGUGCACUGUGAAUGGACUUUGUAUUAUUUUUAAACCUUACACUCGAUGUAA,0.118
AAAAAAAAGCCUAUUAAUAGGGUUUCUGCGCGGUGCAGGGUUGUAAACCUGCUUUAUCUUUUAGGAUUAUUCCUAAAUGCAUCUUCUUUAUAAACUUGACUUGCUAUCUCAGCAAGAUAA,0.149
GAGUAGCCUAAGUCUGGCUGUUCCUCCACCAAGAUUUCAUGACUCCAGCAGUCCGUUGCUAACCAGUGGGCCCUCAGUUGCUGAGCUCCCGUGGGCUGUAAAGUCUGAAGAUAAAGCCAA,0.212
GCAAAGCAAAUUUAUGAAGAAUUCAUUCAAACGGAGGCUCCUAAAGAGGUGAAUAUUGACCACUUCACUAAGGACAUCACAAUGAAGAACCUGGUGGAACCUUCCCUGAGCAGCUUUGAC,0.191
UACGCCGGCAGCCCGGUGCACCACGCGGCUGAGCGACUGGGAGGCGCCCCGACCGGCCAGGGCGUGAGCCCCAGCCCCAGCGCCAUCCUGGAGCGGCGCGACGUGAAGCCAGAUGAGGAC,0.165
ACUAAUGCAGUGAUCGCCGGCUUGAUAGUGUUGGAAGGAUUAAAGAUUUUAUCUGGAAAAAUAGACCAGUGUAGAACUAUUUUUUUGAAUAAGCAGCCAAACCCAAGAAAGAAGCUCUUG,1.17
AAUGAAGAAGAAAUACGUGCAAAUGUGGCCGUGGUUUCUGGUGCACCACUUCAGGGGUUGGUAGCAAGACCUUCCAGUAUAAACUAUAUGGUGGCUCCUGUAACUGGUAAUGAUGUUGGA,0.437

# Sample 3
# Target: Fragile X messenger ribonucleoprotein 1, C-terminal low-complexity region (Fmr1, Mus musculus, UniProt P35922)
# Method: RNA Bind-n-Seq
# Form: RNA
# Matrix: in vitro
# Concentration: 200 nM
# Setting: whole 134-nt RNA, ends assumed
# With: 150 mM KCl
# Reference: input library
# Reading: higher = stronger binding
# Constant ends, left off below: GGGAGUUCUACAGUCCGACGAUC … UGGAAUUCUCGGGUGUCAAGG
Oligonucleotide,log2 enrichment
CCCUGUGGGCCUUGCUCAGAGCGGAGAAAGCAUUUGUUUGUACAAGAUCCGCAGACGUGUAAAUGUUCCUGCAAAAACACAGACUCGCGU,-0.8
GUCCUGUGCUACACAUCGUAUGUACCGAAUCGGUUUUUUGGGUUUUUUGGUUUUUUGGAAAGUAUUAUGUUACGCCGUUCGGAUCUGCAC,-0.649
CGGCCCUGGUGGCAUGCGGGGAGGAAGAGGUGGCCUCAUGGAUCGUGGUGGUCCCGGUGGAAUGUUCAGAGGUGGCCGUGGUGGAGACAG,0.0399
UUGAUGUUAGUAAAUUUGGUGUAAUACGUGGGGCUUCCAUAUUUCAAAGUGGAAGCUUUCUUCUCUGAAGUCGAUAUAUGGUUUUGAAUU,-0.67
AGUCCUGUGCUACACAUCGUAUGUACCGAAUCGGGAAAAAGGGUUUGGGAAAAAGGGAAAGUAUUAUGUUACGCCGUUCGGAUCUGCACU,-0.308
AAGUCCUGUGCUACACAUCGUAUGUACCGAAUCGGUUUGGAAAAAAAGGUUUUUGGAAAGUAUUAUGUUACGCCGUUCGGAUCUGCACUU,-1.03
AGUCCUGUGCUACACAUCGUAUGUACCGAAUCGGGGUUUGGGGAAAGGGGAAAGGGGAAAGUAUUAUGUUACGCCGUUCGGAUCUGCACU,0.679
UGGCCCUGGUGGCAUGCGGGGAGGAAGAGGUCGCCUCAUGGAUCGUGGUGGUCCCGGUGGAAUGUUCAGAGGUGGCCGUGGUGGAGACAG,-0.345
UCCUGUGCUACACAUCGUAUGUACCGAAUCGGGUUUUUGGGUUUUUGGGGUUUUUGGGGAAAGUAUUAUGUUACGCCGUUCGGAUCUGCA,0.449
AGUCCUGUGCUACACAUCGUAUGUACCGAAUCGGGUUUUGGUUUUGGGGUUUUGGGGAAAGUAUUAUGUUACGCCGUUCGGAUCUGCACU,0.357
CCUGUGCUACACAUCGUAUGUACCGAAUCGGGAAAAAAAGGGAAAAAAAGGGUUUUUGGGAAAGUAUUAUGUUACGCCGUUCGGAUCUGC,-0.683
AGUCCUGUGCUACACAUCGUAUGUACCGAAUCGGGGUUUGGGGUUUGGGGUUUGGGGAAAGUAUUAUGUUACGCCGUUCGGAUCUGCACU,1.56
AGUCCUGUGCUACACAUCGUAUGUACCGAAUCGGUUUUUGGAAAAAAAGGAAAAAGGAAAGUAUUAUGUUACGCCGUUCGGAUCUGCACU,-1.21
ACCAUGCAGGUGGGCAUCUUUGGGAAGUGGGGCAAGGGGGGGAUAGGGAGGGGGGUAACAUUUUGGGAACAGGUGGUCCCAGGUCGUUUC,0.652

# Sample 4
# Target: ABI1, truncated, D143A, DHFR fusion (Arabidopsis thaliana)
# Method: DHFR PCA, deep sequencing
# Matrix: yeast
# Setting: methotrexate growth selection, single substitutions
# With: (+)-ABA 0.0091 µM
# Reference: wild-type fitted maximum
# Reading: higher = stronger binding
# Parent: PYL1, truncated, DHFR fusion (Arabidopsis thaliana); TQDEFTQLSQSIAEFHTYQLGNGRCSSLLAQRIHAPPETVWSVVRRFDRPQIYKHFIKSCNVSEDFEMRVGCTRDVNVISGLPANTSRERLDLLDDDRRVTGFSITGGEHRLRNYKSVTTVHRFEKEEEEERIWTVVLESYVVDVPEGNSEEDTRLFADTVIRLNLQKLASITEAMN
Variant,relative binding score
A84Q,24.8%
D96T,11.3%
G102V,-0.774%
S140H,-0.744%
Y53E,-2.91%
T120F,-2.8%
T135W,-16.4%
E174V,-1.75%
L93C,0.472%
T154F,-4.25%
R98N,5.91%
L164I,5.91%
C25L,6.86%
S104K,-7.46%
R98D,-6.84%
R98S,-2.59%
N61F,22.7%
R90L,-3.21%
V161P,-3.77%
V118R,54.5%
E174P,-0.334%
R123F,-9.71%
Y141H,3.72%
L138W,0.262%
L29P,0.0545%

# Excerpt of the above (sample 1):
Variant,binding fitness [natural log]
T37D,-1.47
I28K,-1.37
E54T,-1.49
R30L,-1.44
A29S,-1.47
E44A,-1.42
L45D,-1.5
